Assay results pooled from the literature.
± marks the error that the study gave.
Cell line: Caco-2

SMILES = CC(C)C[C@@H]1NC(=O)CN(C)C(=O)[C@H](Cc2ccccc2)NCC2=CC=C(CNC1=O)O2; efflux ratio = 5
SMILES = Cc1ccc(Nc2c(-c3ccc(F)cc3)nc3n2CCNC3)cc1; scale = reference: A-B over B-A; efflux ratio = 3.47
SMILES = COc1ccc(-c2coc3cc(O)cc(O)c3c2=O)cc1; assay = bidirectional transport; setting = 100 µg/mL, 2 h; scale = reference: Papp BL-AP over Papp AP-BL; efflux ratio = 1.04 ± 0.1
SMILES = C#Cc1c(F)ccc2cc(O)cc(-c3ncc4c(N5CC6CCC(C5)N6)nc(OC[C@@]56CCCN5C[C@H](F)C6)nc4c3F)c12; setting = no inhibitor, BCRP (novobiocin) set; efflux ratio = > 16.3
SMILES = N#Cc1ccc(C[C@H](Nc2nnc(-c3ccc(F)cc3)o2)C(=O)N2CCc3ccccc32)cc1; setting = 100 µM, 2 h; scale = reference: Papp B-A over A-B; efflux ratio = 3.9
SMILES = O=C(Nc1c2c(cc3c1CCC3)CCC2)NS(=O)(=O)/C=C/c1nccs1; setting = 2 µM, 120 min, pH 7.4; scale = reference: B-A over A-B; efflux ratio = 1.15
SMILES = Cc1ccc(Nc2c(-c3ccc(F)cc3)nc3n2CC(=O)NC3)cc1; scale = reference: A-B over B-A; efflux ratio = 1.04
SMILES = CC(=O)CC(c1ccccc1)c1c(O)c2ccccc2oc1=O (stereo not drawn); setting = 10 µM, 2 h; scale = reference: B-A over A-B; efflux ratio = 0.542
SMILES = CC1(C)c2nc(-c3ccc(F)cc3)c(Nc3ccc(F)c(F)c3)n2CCN1C(=O)CN; scale = reference: A-B over B-A; efflux ratio = 0.47
SMILES = C[C@]12CC[C@@H]3c4ccc(OS(=O)(=O)O)cc4CC[C@H]3[C@@H]1CCC2=O; setting = no inhibitor, BCRP (novobiocin) set; efflux ratio = 34.2
SMILES = O.Oc1cc2c(cc1O)[C@@H]1c3ccc(O)c(O)c3OC[C@]1(O)C2; setting = 100 µg/mL, 2 h; scale = reference: B-A over A-B; efflux ratio = > 2
SMILES = Cc1cc(C)c(CNC(=O)c2cc(Cl)c3c(c2C)O[C@@](C)([C@H]2CC[C@H](N(C)C)CC2)O3)c(=O)[nH]1; setting = 30 µM; efflux ratio = 33.7

Repeated from above:
SMILES = COc1ccc(-c2coc3cc(O)cc(O)c3c2=O)cc1; assay = bidirectional transport; setting = 100 µg/mL, 2 h; scale = reference: Papp BL-AP over Papp AP-BL; efflux ratio = 1.04 ± 0.1
